# Experimental data gathered from unrelated publications.
# Each line is one published result; not all experiments were run side by side. pKd: −log10 of the molar value.
# T1: G-quadruplex DNA, hybrid fold (Homo sapiens); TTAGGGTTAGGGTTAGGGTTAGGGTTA
# T2: G-quadruplex DNA, human telomeric (Homo sapiens); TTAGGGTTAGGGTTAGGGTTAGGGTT
# T3: G-quadruplex DNA, hybrid-1 monomeric G4 (Homo sapiens); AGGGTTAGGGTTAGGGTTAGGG
# T4: G-quadruplex DNA (Homo sapiens); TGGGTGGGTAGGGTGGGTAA
# T5: G-quadruplex DNA dimer (Homo sapiens); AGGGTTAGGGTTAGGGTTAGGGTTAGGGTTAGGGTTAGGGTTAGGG
# T6: G-quadruplex DNA G13T (Homo sapiens); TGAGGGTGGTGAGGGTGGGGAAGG
# T7: G-quadruplex DNA (Homo sapiens); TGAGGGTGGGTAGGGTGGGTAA
# T8: G-quadruplex DNA, G-quadruplex (Homo sapiens); AGGGTGGGCTGGGAGGT
# T9: G-quadruplex DNA, parallel, snap-back loop (Homo sapiens); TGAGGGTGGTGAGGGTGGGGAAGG
# T10: G-quadruplex DNA (Streptococcus pneumoniae); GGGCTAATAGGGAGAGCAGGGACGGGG
# T11: G-quadruplex DNA (Homo sapiens); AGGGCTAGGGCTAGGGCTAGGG
# T12: G-quadruplex DNA, human telomere G4 (Homo sapiens); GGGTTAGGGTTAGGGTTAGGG
# T13: G-quadruplex DNA, hairpin duplex plus G4 (Homo sapiens); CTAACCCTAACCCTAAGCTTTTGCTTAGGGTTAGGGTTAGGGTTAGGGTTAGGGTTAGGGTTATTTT
# T14: G-quadruplex DNA, c-KIT promoter (Homo sapiens); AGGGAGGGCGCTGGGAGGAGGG
# T15: G-quadruplex DNA, monomeric G-quadruplex; GGTTAGGTTAGGTTAGG
SMILES,target,assay,conditions,scale,quantity,result
CCn1c(-c2cccc(-c3nc4ccccc4n3CC)n2)nc2ccccc21.[C-]#Cc1ccc(C[N+](C)(C)C)cc1.[Pt+2],"T1, G-quadruplex DNA, hybrid fold (Homo sapiens)",UV melting,,,binding,binds weakly
Cc1ccc(-c2nc3n(ccc4nc(-c5ccc(C)cc5)c(C=NNC5=NCCN5)n43)c2C=O)cc1,"T2, G-quadruplex DNA, human telomeric (Homo sapiens)",CD melting,"DNA 10 µM, KCl 20 mM",,melting temperature shift,1.3 °C
CN(C)CCCNc1cc2c3c(ccc4c3c1C(=O)N(CCCN(C)C)C4=O)C(=O)N(CCCN(C)C)C2=O,"T3, G-quadruplex DNA, hybrid-1 monomeric G4 (Homo sapiens)",ITC,"pH 7.0, 25 °C, KCl 100 mM",,pKd,6.64
CN(C)c1ccc2c(c1)[Si](C)(C)C1=CC(=[N+](C)C)C=CC1=C2c1cc(C(=O)NCCCCCC(=O)NCCOc2cc(C(=O)Nc3cc(OCCN4CCCC4)c4ccccc4n3)nc(C(=O)Nc3cc(OCCN4CCCC4)c4ccccc4n3)c2)ccc1C(=O)[O-],"T4, G-quadruplex DNA (Homo sapiens)",fluorescence titration,"pH 7.4, KCl 100 mM, apparent, light-up",,pKd,6.20
CCN(CC)c1ccc2cc(-c3nc4c5cccnc5c5ncccc5c4[nH]3)c(=O)oc2c1.NCCN.[Pt+2],"T5, G-quadruplex DNA dimer (Homo sapiens)",CD spectroscopy,"pH 7.0, NaCl 100 mM",,binding,binds weakly
C[n+]1cc(C(=O)Nc2ccc3[nH]cc(Cc4c[nH]c5ccc(NC(=O)CCC[N+]6(C)CC[N+](C)(C)CC6)cc45)c3c2)cc2ccccc21,"T6, G-quadruplex DNA G13T (Homo sapiens)",microscale thermophoresis,KCl 100 mM,,pKd,5.52
C[n+]1cccc2cc(/C=N/NC(=O)c3ccc4ccc5ccc(C(=O)N/N=C/c6ccc7c(ccc[n+]7C)c6)nc5c4n3)ccc21,"T7, G-quadruplex DNA (Homo sapiens)",Cy5 fluorescence quenching titration,"pH 7.2, KCl 100 mM, first transition",,pKd,7.74
CCC1=C(C)c2cc3[nH]c(cc4nc(cc5[nH]c(cc1n2)c(C)c5CCC(=O)NCCOCCOCC(=O)NCCN(CC(=O)N[C@H](CCCCN)C(=O)N[C@H](CCCCN)C(N)=O)C(=O)Cn1cnc2c(=O)[nH]c(N)nc21)C(CCC(=O)O)=C4C)c(C)c3CC,"T8, G-quadruplex DNA, G-quadruplex (Homo sapiens)",fluorescence titration,"pH 7.4, KCl 50 mM, single-site fit",,pKd,7.16
C[n+]1ccc(/C=N/NC(=O)c2cccc(C(=O)N/N=C/c3cc[n+](C)c4ccccc34)n2)c2ccccc21,"T9, G-quadruplex DNA, parallel, snap-back loop (Homo sapiens)",Cy5 fluorescence quenching titration,"2 nM, pH 7.2, KCl 100 mM",,pKd,8.12
CN(C)CCCOc1cc(C(=O)NCc2cn(Cc3c4ccccc4cc4ccccc34)nn2)nc(C(=O)NCc2cn(Cc3c4ccccc4cc4ccccc34)nn2)c1,"T10, G-quadruplex DNA (Streptococcus pneumoniae)",FRET melting,"5 µM, pH 7.4, potassium cacodylate 60 mM","baseline: DNA without compound, higher = more stabilisation",melting temperature shift,7 °C
C[n+]1ccc(/C=N/NC(=O)c2cncc(C(=O)N/N=C/c3cc[n+](C)c4ccccc34)n2)c2ccccc21,"T11, G-quadruplex DNA (Homo sapiens)",UV melting,6 µM,,change in melting temperature,25 °C
CN(C)CCCn1c(=O)c2ccc3c(=O)n(CCCN(C)C)c(=O)c4c5[nH]c6ccccc6[nH]c5c(c1=O)c2c34,"T12, G-quadruplex DNA, human telomere G4 (Homo sapiens)",SPR,"pH 7.4, K+ 0.2 M",,pKd,7.88
[N-]=[N+]=NCCOc1cc(C(=O)Nc2cc(OCCN)c3ccccc3n2)nc(C(=O)Nc2cc(OCCN)c3ccccc3n2)c1,"T13, G-quadruplex DNA, hairpin duplex plus G4 (Homo sapiens)",SPR,"pH 7.4, 25 °C, KCl 200 mM",,pKd,6.66
OCc1c(-c2ccccc2)nc2n1ccc1nc(-c3ccccc3)c(C=NNC3=NCCN3)n12,"T14, G-quadruplex DNA, c-KIT promoter (Homo sapiens)","thiazole orange displacement, competitor, fluorescent intercalator displacement",KCl 20 mM,,binding,binds weakly
Cc1ccc(Cn2cc3c(-c4ccc5c(c4)OCO5)nnc-3c3cc4c(cc32)OCO4)cc1,"T15, G-quadruplex DNA, monomeric G-quadruplex",fluorescence titration,KCl 100 mM,,pKd,4.90

# Excerpt of the above:
SMILES,target,assay,conditions,scale,quantity,result
CN(C)CCCn1c(=O)c2ccc3c(=O)n(CCCN(C)C)c(=O)c4c5[nH]c6ccccc6[nH]c5c(c1=O)c2c34,"T12, G-quadruplex DNA, human telomere G4 (Homo sapiens)",SPR,"pH 7.4, K+ 0.2 M",,pKd,7.88
[N-]=[N+]=NCCOc1cc(C(=O)Nc2cc(OCCN)c3ccccc3n2)nc(C(=O)Nc2cc(OCCN)c3ccccc3n2)c1,"T13, G-quadruplex DNA, hairpin duplex plus G4 (Homo sapiens)",SPR,"pH 7.4, 25 °C, KCl 200 mM",,pKd,6.66
